Measurements gathered from unrelated publications.
Numbered parts are unrelated; each lists some results of a single study. Changes are numbered by the printed parent chain.

Set 1
Target: RNA binding protein fox-1 homolog 2, RRM domain, GST-SBP tag (RBFOX2, Homo sapiens, UniProt O43251-10, residues 100-194)
Technique: RNA Bind-n-Seq
Molecule type: RNA
Sample: in vitro
Tested at: 365 nM
Notes: natural RNA segment, single round, ends assumed
Reference: no-protein control
Reading: higher = stronger binding
Shared flanks, not repeated: GGGAGUUCUACAGUCCGACGAUC … UGGAAUUCUCGGGUGCCAA
Residues (chain): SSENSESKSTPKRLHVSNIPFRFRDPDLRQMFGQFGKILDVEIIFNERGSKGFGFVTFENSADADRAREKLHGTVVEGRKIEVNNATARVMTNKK
Strand	RBNS enrichment (R)
CUGGGCCAGCCUGUAGCCUGACCGCACUAGUGGUCGCCCAGUCCCCAUCUCUGUGGCCCUCUGAAGCCCCAGCCCCCAUGCAUCAGCCUCUGGCACAUUUCCUCUCCUGC	6.87
CUUGAAUUUUAGGGACUUUAAUUCACCCCUCCUUCAAUACAACUUUCCCCCUUCUUGUUUGCACAUGCCAAGAUAACUGCUUUUAUGCAGGCUGUACCCCCUUGAAAAAU	1.83
GAGGAAUGGAGCUUGUUUCUGUGACCCAGGAGAACUUAGUGCAAGACUACAGGAGUUAACAGAUGGCCAGCUCCUUAUUUUUUAAUGUAGAAUAACUCCUGAGUUUAUAU	0.425
AGACAUAAUUGUUAUCUCCUUUUGGCUUAUGUGAUUUUCUGUUUACAAGUAGAAUAGCCAAUUAUUUAAAUGUUUAGUUGCCACAGUGAACCAGGAGUCACUGAGCCAAU	0.638
CAAAAUAACGCCCCAGAUACCAGCCCCUGUAUGGCACUGGCAUUGUCCCUGUGCCUAACACCAGCGUUUGAGGGGCUGGCCUUCCUGCCCUACAGAGGUCUCUGCCGGCU	0.209
ACUCUAAUGUGACUGUAUAUACUGCUCGGAGUAAGAAUGUGCUAAGAUCAGAAUGCCUGUUCGUGGUUUCAUAUAAUAUAUUUUUCUAAAAGCAUAGAUUGCACAGGAAG	0.765
GAGCCGGGUGUGAACUAUGGUUUAGAAGGUUCAAGUUUCCAAUUAAAGUCAUUGAAGAAAACUUGAAUGAGUGUCUUCUUUGUAUAUGGCCUCCCUCCAAUGUCUGUCUC	0.503
CCCCAGGACUCCCGCCCACACUCCUUUGGGCUGCUGCCUGCCUGGCUAGCUCUGUCCAGAUAGGACCUGAGGAAGCCACCUUGUAGGGAGCCUUGUGUGUGGCCAGGGAC	0.328

Set 2
Target: CCND2, cyclin fold, Cln2 fusion (human)
Technique: yeast growth competition, sequencing
Sample: yeast
Notes: weak parent motif
Reference: not given
Reading: higher = stronger binding
Starting sequence: RRM2 docking peptide (human); SKTARRIFQEPTE; partner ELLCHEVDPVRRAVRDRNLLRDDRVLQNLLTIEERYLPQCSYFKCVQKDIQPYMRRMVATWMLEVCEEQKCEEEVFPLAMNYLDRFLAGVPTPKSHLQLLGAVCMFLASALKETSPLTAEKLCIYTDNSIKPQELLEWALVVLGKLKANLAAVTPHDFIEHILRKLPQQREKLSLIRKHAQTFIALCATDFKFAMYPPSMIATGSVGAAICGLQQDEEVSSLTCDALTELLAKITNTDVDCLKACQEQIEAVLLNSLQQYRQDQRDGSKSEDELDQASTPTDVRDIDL
Change	normalised enrichment score
SKAARRIFQEPTE [T3A]	0.0247
SKTARRIFQAPTE [E10A]	-0.131
SKTARRIFQEPAE [T12A]	0.123
SKTARRAFQEPTE [I7A]	0.249
SKTARRIFQEPTA [E13A]	0.216
SKTAARIFQEPTE [R5A]	0.286

Set 3
Target: Sal-like protein 4, full length isoform A (SALL4, Homo sapiens, UniProt Q9UJQ4, residues 1-1053)
Sequence of UniProt Q9UJQ4 (whole entry, looked up): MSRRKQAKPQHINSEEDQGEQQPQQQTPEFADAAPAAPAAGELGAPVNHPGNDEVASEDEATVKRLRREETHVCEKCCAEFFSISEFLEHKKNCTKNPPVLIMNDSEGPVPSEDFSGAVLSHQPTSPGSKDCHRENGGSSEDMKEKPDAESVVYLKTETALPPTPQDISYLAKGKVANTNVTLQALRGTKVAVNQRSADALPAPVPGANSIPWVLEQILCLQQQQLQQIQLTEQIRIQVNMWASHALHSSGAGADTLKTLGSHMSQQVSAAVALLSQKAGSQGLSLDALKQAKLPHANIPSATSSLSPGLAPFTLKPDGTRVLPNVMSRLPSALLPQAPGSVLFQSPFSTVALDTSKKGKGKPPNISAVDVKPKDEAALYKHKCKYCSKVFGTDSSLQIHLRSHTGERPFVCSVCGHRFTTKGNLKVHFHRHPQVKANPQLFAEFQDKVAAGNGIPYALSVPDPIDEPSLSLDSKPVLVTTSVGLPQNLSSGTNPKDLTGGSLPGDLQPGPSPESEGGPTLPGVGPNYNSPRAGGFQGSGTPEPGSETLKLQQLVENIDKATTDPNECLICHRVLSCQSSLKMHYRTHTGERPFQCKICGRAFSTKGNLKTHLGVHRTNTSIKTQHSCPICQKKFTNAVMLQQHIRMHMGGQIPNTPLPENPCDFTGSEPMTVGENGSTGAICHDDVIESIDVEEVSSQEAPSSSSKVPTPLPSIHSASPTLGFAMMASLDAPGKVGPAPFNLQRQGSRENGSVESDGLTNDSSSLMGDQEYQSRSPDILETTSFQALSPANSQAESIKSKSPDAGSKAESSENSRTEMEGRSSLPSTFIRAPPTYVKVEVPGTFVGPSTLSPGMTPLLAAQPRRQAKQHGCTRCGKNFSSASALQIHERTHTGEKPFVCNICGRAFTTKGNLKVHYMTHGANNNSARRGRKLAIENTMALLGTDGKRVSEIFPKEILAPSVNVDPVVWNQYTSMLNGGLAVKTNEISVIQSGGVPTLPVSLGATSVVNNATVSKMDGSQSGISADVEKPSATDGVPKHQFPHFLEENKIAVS
Technique: universal PBM
Molecule type: double-stranded DNA, one strand shown
Sample: in vitro
Tested at: 600 nM
Notes: 8-mer, flanks averaged, mean of replicates
Reading: higher = stronger binding
Strand	E-score
AAAAACCC	-0.0616
CGCATTAG	-0.135
CCTAAATA	0.0805
CCTGGCCC	-0.387
ACACCTTC	-0.0293
ATTCCCTG	0.0146
GACAAGCC	-0.0682
CTCATGTC	-0.0766
ATTCTAAA	0.273
CATGGTAA	0.179
TAGCTTCA	0.0246
ATACCTTC	0.0632
GCTTATAA	0.267
CGTCAGGA	-0.0836
GCTTTAAC	0.0301
GGGTCCCA	-0.263
ATGGACCC	-0.185
TCCGGCCA	-0.268
CCCCCGCA	-0.192
AGAATCAT	0.268
CCTTTATC	0.103
ACCTATTG	0.231
ACTTAAGA	0.241
CTGCTGTC	-0.17
CTAGTTAC	-0.0804

Set 4
Target: Ras GTPase-activating protein-binding protein 1, C-terminal RGG region (G3BP1, Homo sapiens, UniProt Q13283)
Sequence of UniProt Q13283 (whole entry, looked up): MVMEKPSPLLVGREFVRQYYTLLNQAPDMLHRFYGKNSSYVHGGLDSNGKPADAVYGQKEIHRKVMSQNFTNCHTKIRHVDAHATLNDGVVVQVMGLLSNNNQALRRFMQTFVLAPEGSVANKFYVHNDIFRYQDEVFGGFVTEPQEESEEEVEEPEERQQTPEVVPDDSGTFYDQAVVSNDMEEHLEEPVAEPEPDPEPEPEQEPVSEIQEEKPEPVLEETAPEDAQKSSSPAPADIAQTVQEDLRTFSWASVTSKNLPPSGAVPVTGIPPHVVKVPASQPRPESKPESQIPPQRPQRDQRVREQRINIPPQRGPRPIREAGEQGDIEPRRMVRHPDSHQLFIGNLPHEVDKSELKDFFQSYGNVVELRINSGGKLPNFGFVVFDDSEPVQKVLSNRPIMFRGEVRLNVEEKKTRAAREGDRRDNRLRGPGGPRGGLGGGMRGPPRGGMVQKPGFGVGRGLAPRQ
Technique: RNA Bind-n-Seq
Molecule type: RNA
Sample: in vitro
Tested at: 1 µM
Notes: whole 134-nt RNA, ends assumed
With: 150 mM KCl
Reference: input library
Reading: higher = stronger binding
Shared flanks, not repeated: GGGAGUUCUACAGUCCGACGAUC … UGGAAUUCUCGGGUGUCAAGG
Strand	log2 enrichment
GUCCUGUGCUACACAUCGUAUGUACCGAAUCGGGGUUUGGGGUUUUUUUGGGGUGGGGAAAGUAUUAUGUUACGCCGUUCGGAUCUGCAC	1.69
GCAGGAAGUAAAAACAAAUGGAAAUGCUUCGGAUAGUGGCAGGGGUGGGGGUUGCUAAAGAAAGGGUGGGAUGGGAGUGGGUAAAGAGUU	1.24
UCCUGUGCUACACAUCGUAUGUACCGAAUCGGGUUUUUGGGAAAAAGGGAAAAAAAGGGAAAGUAUUAUGUUACGCCGUUCGGAUCUGCA	-0.746
CCUGUGCUACACAUCGUAUGUACCGAAUCGGGGUUUUUUUGGGGAAAGGGGAAAAAGGGGAAAGUAUUAUGUUACGCCGUUCGGAUCUGC	0.114
UAACUUUAGAGGAGGAUCUGAUGGAUAUGGCAGUGGCCGUGGAUUUGGGGAUGGCUAUAAUGGGUAUGGAGGAGGACCUGGAGGUGGCAA	-0.52
UCCUGUGCUACACAUCGUAUGUACCGAAUCGGGAAAAAAGGGAAAAAAGGGGAAAAAAGGAAAGUAUUAUGUUACGCCGUUCGGAUCUGC	-1.36
CACAGACAACACGCACCCACACAGACACAGAGGGAAGGGGUUGGGAUGGGGACAGGGGGCACAGCAGGGCGGGGUAGGACCCCAGCCCCU	-0.509
CACAGACAACACGCACCCACACAGACACAGAGGGAAGGGGUUGGGAUGGGGACAGGGUGCACAGCAGGGCGGGGUAGGACCCCAUCCCCU	-1.16
UAACUUUAGAGGAGGAUCUGAUGGAUAUGGCAGUUGACGUGGAUUUGGGGAUGGCUAUAAUGGGUAUGGAGGAGGACCUGGAGGUGGCAA	-0.669

Set 5
Target: Histone acetyltransferase KAT6A, winged helix 2, GST fusion (KAT6A, Homo sapiens, UniProt Q92794, residues 85-181)
Technique: protein binding microarray
Molecule type: double-stranded DNA, one strand shown
Sample: in vitro
Tested at: not given
Notes: 8-mer, flanks averaged, mean of 2 arrays, mostly near background
Reference: not given
Reading: higher = stronger binding
Target sequence (chain): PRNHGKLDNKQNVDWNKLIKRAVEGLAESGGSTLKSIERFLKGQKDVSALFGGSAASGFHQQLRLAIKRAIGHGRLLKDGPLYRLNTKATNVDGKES
Strand	E-score
ACTCCACC	-0.00347
GCATTCGA	0.00498
AACATTCT	-0.115
CCTGATGA	0.125
AGCGCGTC	-0.0256
GGACCATA	-0.0797
CCTGATAG	-0.109
ACCTCAAT	-0.106
GAAATTTA	-0.0271
TCGAGTAA	0.00937
AGCTCGTG	0.0442
GTTGAGGA	0.0995
GTAACCGA	0.0208
ATGGCATG	0.0325
ACATAAAG	-0.0311
CGGGTCGA	0.114
AAATCAGA	-0.00175

Other studies, line by line
Molecule	target	assay	system	setting	scale	measurement	result
PhoQ, residues 284 288 289 292 302 303 TLSLKA	PhoP, residues 12 14 15 18 19 SYFRT (Escherichia coli, UniProt P23836)	Sort-seq, measured: YFP reporter	E. coli	PhoQ-PhoP variant library, with: 10 µM Mg2+	reference: high Mg2+ state, higher = stronger signaling	fold induction	6.86

A few entries again (set 3):
Strand	E-score
GACAAGCC	-0.0682
CTCATGTC	-0.0766
ATTCTAAA	0.273
CATGGTAA	0.179
TAGCTTCA	0.0246
ATACCTTC	0.0632
GCTTATAA	0.267
CGTCAGGA	-0.0836
GCTTTAAC	0.0301
GGGTCCCA	-0.263
